# Measurements gathered from unrelated publications.
# Every numbered part comes from another study and shows a few of its results, in no order.

# Study 1
# Target: Histone acetyltransferase KAT6A, winged helix 2, GST fusion (KAT6A, Homo sapiens, UniProt Q92794, residues 85-181)
# Technique: protein binding microarray
# Form: double-stranded DNA, one strand shown
# Sample: in vitro
# Concentration: not given
# Setting: 8-mer, flanks averaged, mean of 2 arrays, mostly near background
# Reference: not given
# Direction: higher = stronger binding
# Construct (chain): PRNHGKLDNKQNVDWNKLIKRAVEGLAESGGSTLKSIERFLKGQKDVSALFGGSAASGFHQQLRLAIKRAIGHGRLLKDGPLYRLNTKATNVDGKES
Oligonucleotide,E-score
GATCGCGA,0.134
AGCATCTA,-0.0537
ATAGGTGA,-0.224
AGCTTCCG,0.116
CAACATGC,-0.00799
ATCGGGAA,0.152

# Study 2
# Target: RNA binding protein fox-1 homolog 2, RRM domain, GST-SBP tag (RBFOX2, Homo sapiens, UniProt O43251-10, residues 100-194)
# Technique: RNA Bind-n-Seq
# Form: RNA
# Sample: in vitro
# Concentration: 365 nM
# Setting: natural RNA segment, single round, ends assumed
# Reference: no-protein control
# Direction: higher = stronger binding
Oligonucleotide,RBNS enrichment (R)
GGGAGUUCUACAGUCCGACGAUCAUAAAGUAUGACCCACAUUACUUUUUAUGGGUGAAAAUAAGACAAAAAUAAUAGUUUUAGUGAGGAUGGUGCUGAGUAAACAUAAAAACUGAUUUGCUCUCAGCUGAUGUUGGAAUUCUCGGGUGCCAA,0.539
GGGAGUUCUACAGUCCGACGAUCUGUGUCUGGACUUAACUCACGUAGUAAAUACUGCUGAUCAAUACCUAAUCAUUCCACAUUUAUUGAGCUCCACCUGUGUGUAUGUGUACCCAAGCACACAUGUGUGAAGGUGGAAUUCUCGGGUGCCAA,0.45
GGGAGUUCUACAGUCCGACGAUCAAAAAUUUUAAAAAUAUAACGAGGGAUAAAUUUUUGGUGGUGAUAGUGUCCCAGUACAAAAAGGCUGUAAGAUAGUCAACCACAGUAGUCACCUAUGUCUGUGCCUCCCUUGGAAUUCUCGGGUGCCAA,0.55
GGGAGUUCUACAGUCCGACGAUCUUCCUGUGUGGGGUUCAGCGUAGAAAACGCACCUCCAUCCCGCCCUUCCCACAGCAUUCCUCCAUCUUAGAUAGAUGGUACUCUCCAAAGGCCCUACCAGAGGGAACACGUGGAAUUCUCGGGUGCCAA,0.535
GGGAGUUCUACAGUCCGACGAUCCACCUGGACCAUUUGAUUGUUUUAUUUUGGAAUUGGUGUAUAUCAUGAAGCCUUGCUGAACUAAGUUUUGUGUGUAUAUAUUUAAAAAAAAAAUCAGUGUUUAAAUAAAGUGGAAUUCUCGGGUGCCAA,0.442

# Study 3
# Target: Sal-like protein 4, full length isoform A (SALL4, Homo sapiens, UniProt Q9UJQ4, residues 1-1053)
# UniProt Q9UJQ4, sequence (whole entry, looked up): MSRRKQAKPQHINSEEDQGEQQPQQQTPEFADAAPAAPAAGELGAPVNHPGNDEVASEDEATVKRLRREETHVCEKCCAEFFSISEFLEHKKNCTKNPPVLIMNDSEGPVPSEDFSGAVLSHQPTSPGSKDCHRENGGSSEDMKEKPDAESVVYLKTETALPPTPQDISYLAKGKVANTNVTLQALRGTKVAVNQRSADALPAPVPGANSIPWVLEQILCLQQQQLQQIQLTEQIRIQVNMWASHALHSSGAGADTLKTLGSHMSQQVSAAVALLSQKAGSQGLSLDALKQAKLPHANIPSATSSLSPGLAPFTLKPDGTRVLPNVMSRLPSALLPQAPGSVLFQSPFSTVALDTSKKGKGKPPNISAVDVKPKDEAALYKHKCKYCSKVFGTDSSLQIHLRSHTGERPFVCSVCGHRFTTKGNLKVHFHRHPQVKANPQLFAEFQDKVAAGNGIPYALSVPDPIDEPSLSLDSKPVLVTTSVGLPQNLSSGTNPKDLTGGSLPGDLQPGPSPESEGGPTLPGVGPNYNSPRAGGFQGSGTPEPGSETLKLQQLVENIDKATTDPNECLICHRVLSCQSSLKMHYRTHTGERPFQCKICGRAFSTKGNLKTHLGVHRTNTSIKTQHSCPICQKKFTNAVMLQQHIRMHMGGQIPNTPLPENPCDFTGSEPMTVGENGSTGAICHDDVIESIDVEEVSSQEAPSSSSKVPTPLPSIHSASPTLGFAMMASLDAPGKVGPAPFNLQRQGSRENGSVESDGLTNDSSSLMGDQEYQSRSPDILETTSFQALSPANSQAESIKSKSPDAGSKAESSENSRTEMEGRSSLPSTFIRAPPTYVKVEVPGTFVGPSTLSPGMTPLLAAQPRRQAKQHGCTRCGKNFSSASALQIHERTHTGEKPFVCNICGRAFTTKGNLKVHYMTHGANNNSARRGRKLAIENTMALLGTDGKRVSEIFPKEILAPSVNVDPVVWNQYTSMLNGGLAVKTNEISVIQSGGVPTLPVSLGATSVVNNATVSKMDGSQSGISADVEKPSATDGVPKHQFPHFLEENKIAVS
# Technique: universal PBM
# Form: double-stranded DNA, one strand shown
# Sample: in vitro
# Concentration: 600 nM
# Setting: 8-mer, flanks averaged, mean of replicates
# Direction: higher = stronger binding
Oligonucleotide,E-score
GGTATACC,-0.104
CTGGATAC,-0.0925
GAGTCACC,-0.306
ACTCGGAA,-0.0433

# Other studies, line by line
Molecule,target,assay,system,setting,scale,quantity,value
"PhoQ, residues 284 288 289 292 302 303 SSTMSV","PhoP, residues 12 14 15 18 19 DLLYY (Escherichia coli, UniProt P23836)","Sort-seq, measured: YFP reporter",E. coli,"PhoQ-PhoP variant library, with: 10 µM Mg2+","reference: high Mg2+ state, higher = stronger signaling",fold induction,3.42

# Repeated from above (study 1):
Oligonucleotide,E-score
AGCATCTA,-0.0537
ATAGGTGA,-0.224
